Measurements collected from several papers.
Protocols differ between the studies behind these lines. Values joined by “and” are separate records of one study, mostly repeats; a detail may differ. ± marks the error that the study gave.
TOP2A: DNA topoisomerase 2-alpha (TOP2A, Homo sapiens, UniProt P11388)
UCHL1: Ubiquitin carboxyl-terminal hydrolase isozyme L1 (UCHL1, Homo sapiens, UniProt P09936)
Voltage-dependent P/Q-type calcium channel subunit alpha-1A: Voltage-dependent P/Q-type calcium channel subunit alpha-1A (Homo sapiens, UniProt O00555)
T1: G-quadruplex DNA (Homo sapiens); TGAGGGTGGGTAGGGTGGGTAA

SMILES	target	assay	test system	conditions	scale	quantity	result
O=c1nc(SCc2cc(F)cc(C(F)(F)F)c2)nc(SCc2ccc3nc(Cl)ccc3c2)[nH]1	TOP2A	ATPase activity		7.8 µM, together with: ATP 0.075 mM		ATP hydrolysis rate	0.695 µM/min and 0.736 µM/min
C#CC(C)(CC)NS(=O)(=O)c1ccc(OCC)c(C)c1 (stereo not drawn)	UCHL1	covalent, intact protein LC-MS		12.5 µM		labelling	11.9%
O=C(O)c1ccc([N+](=O)[O-])cc1	BEST1 (Homo sapiens, UniProt O76090)	whole-cell patch clamp	HEK293 transiently expressing channel	concentration not given, membrane potential 80 mV		current density	103 pA/pF and 119 pA/pF and 56.6 pA/pF and 56.3 pA/pF and 117 pA/pF and 83 pA/pF and 168 pA/pF
C=CC(=O)N1CCC(COCC(=O)N2CCN(c3nc(-c4cnc(N)nc4C(F)F)nc(N4CCOC[C@@H]4C)n3)CC2)CC1	ULK2 (Homo sapiens, UniProt Q8IYT8)	KINOMEscan		1 µM		remaining binding	100%
CCn1cc(C(=O)O)c(=O)c2cc(F)c(N3CCNCC3)nc21	Voltage-dependent P/Q-type calcium channel subunit alpha-1A	ion current, antagonist	HEK293	3 µM		inhibition	8%
CCCCCCCC/C=C\CCCCCCCC(=O)O	uncharacterized protein (Marinitoga piezophila, UniProt H2J7C1)	substrate, GC-FID		pH 6.0, 20 °C, 5% ethanol, 50 mM NaCl		Km	190 ± 59.2 µM
Nc1nc2c(ncn2[C@@H]2O[C@H](COP(=O)(O)O)[C@@H](O)[C@H]2O)c(=O)[nH]1	GUK1 (Homo sapiens, UniProt Q16774, D103A)	binding, ITC				ΔH	-8.6 ± 0.1 kcal/mol
O=C(COP(=O)(O)O)[C@@H](O)[C@H](O)[C@H](O)COP(=O)(O)O	Phosphoglycerate mutase 1 (Homo sapiens, UniProt P18669)	thermal proteome profiling, refers to: PGAM1	HepG2 cell lysate	concentration not given, 57 over 37 °C, mean	reference: compound over control	thermal stability ratio	1.94
N#CC(=CC1=Cc2ccccc2OC1)C(=O)Nc1ccc(C(=O)O)cc1	UCHL1	covalent, intact protein LC-MS		12.5 µM		labelling	20.8%
Nc1ncnc2c1ncn2[C@@H]1O[C@H](COP(=O)(O)CP(=O)(O)OP(=O)(O)O)[C@@H](O)[C@H]1O	P2X purinoceptor 1 (P2RX1, Homo sapiens, UniProt P51575)	saturation binding	HEK293	13 nM		specific binding	3410 CCPM and 2050 CCPM and 2970 CCPM and 3070 CCPM and 1130 CCPM
O=S(=O)(NCC(O)c1cc2ccccc2s1)c1cccc(Cl)c1O (stereo not drawn)	malate dehydrogenase	enzyme activity, inhibitor		200 µM, pH 7.0, 1% DMSO, aggregation counter-screen		remaining activity	100%
CC[C@@H]1[C@H](F)C(=O)N[C@@H]1COc1nccc2cc(C(N)=O)c(OC)cc12	STK38L (Homo sapiens, UniProt Q9Y2H1)	ATP-site probe binding, ActivX profiling	THP-1 cell lysate	0.01 mM, Lys1 site		inhibition	5.2%
Nc1nc2c(ncn2[C@@H]2O[C@@H]3COP(=O)(O)O[C@H]4[C@@H](O)[C@H](n5cnc6c(=O)[nH]c(N)nc65)O[C@@H]4COP(=O)(O)O[C@H]3[C@H]2O)c(=O)[nH]1	Cell cycle histidine kinase CckA, DHp-CA domains (Caulobacter vibrioides, UniProt Q9X688)	isothermal titration calorimetry	Caulobacter crescentus	concentration not given, 12 °C, together with: AMPPNP 5 mM		binding enthalpy (ΔH)	1 kcal/mol
[O-][S+]1CCCCS1 (stereo not drawn)	SOD1 (Homo sapiens, UniProt P00441, G94A)	intact protein LC-MS	SOD1 G93A transgenic mice, whole blood	oral, 150 mg/kg, 24 h, mean of two mice		target engagement	43.7 % cross-linked dimer
C=C1C(=O)O[C@@H]2C[C@@]3(C)CCCC(=C)[C@@H]3C[C@H]12	Vitamin D3 receptor (VDR, Homo sapiens, UniProt P11473)	reporter gene, Gal4 hybrid reporter		10 µM	reference: vehicle	activation	1.45 fold
NCCCS(=O)(=O)O	SLC6A6 (Homo sapiens, UniProt P31641, Y138A)	binding, microscale thermophoresis		250 µM, room temperature, together with: 50 nM labelled protein	higher = more binding	normalised MST signal	0.74
COc1cccc(CC(C)NS(=O)(=O)c2c(C)oc(C)c2C(=O)O)c1 (stereo not drawn)	malate dehydrogenase	enzyme activity, inhibitor		200 µM, pH 7.0, 1% DMSO, aggregation counter-screen		remaining activity	88%
c1cc(-c2nc(NCCCN3CCCC3)c3ccccc3n2)nc(-c2nc(NCCCN3CCCC3)c3ccccc3n2)c1	T1, G-quadruplex DNA (Homo sapiens)	thiazole orange displacement, competitor, FID		0.25 µM DNA, pH 7.4, 25 °C, KCl 100 mM, together with: thiazole orange 0.50 µM		IC50	273 nM
CC[C@H]1OC(=O)[C@H](C)[C@@H](O[C@H]2C[C@@](C)(OC)[C@@H](O)[C@H](C)O2)[C@H](C)[C@@H](O[C@@H]2O[C@H](C)C[C@H](N(C)C)[C@H]2O)[C@](C)(O)C[C@@H](C)CN(C)[C@H](C)[C@@H](O)[C@]1(C)O	uncharacterized protein (Saccharopolyspora erythraea, UniProt A4F7P9)			concentration not given, pH 7.6, 20 °C, together with: p-nitrophenyl-β-D-glucopyranoside		apparent Km	4230 ± 240 µM
CCN1CCC[C@H]1CNC(=O)c1c(O)c(Cl)cc(Cl)c1OC	G-protein coupled receptor 182 (GPR182, Homo sapiens, UniProt O15218)	β-arrestin recruitment, TANGO luminescence, refers to: GPR182		concentration not given	reference: basal luminescence	log2 fold change	0.288
O=[N+]([O-])c1cc(C(F)(F)F)ccc1NCc1ccsc1	Endothelial PAS domain-containing protein 1, PAS-B domain (EPAS1, Homo sapiens, UniProt Q99814, N288Q)	binding, ITC, reverse mode				TΔS	2.58 ± 0.12 kcal/mol

SMILES	target	assay	test system	conditions	scale	quantity	result
COCc1noc(CN2CCN(C(=O)C(C)Cl)CC2)n1 (stereo not drawn)	UCHL1	covalent, intact protein LC-MS		12.5 µM		labelling	18.3%
C[C@H](CCC(C)(C)O)[C@H]1CC[C@H]2[C@@H]3CC=C4C[C@@](C)(O)CC[C@]4(C)[C@H]3CC[C@]12C	Glutamate NMDA receptor; GRIN1/GRIN2B (GRIN1/GRIN2B, Homo sapiens, UniProt Q05586+Q13224, A549C)	positive allosteric modulator, two-electrode voltage clamp	Xenopus oocytes expressing GluN2B-A549C	10 µM, 0.02% cremophor, together with: 100 µM glutamate and glycine	reference: without compound	current response	121 ± 2.8%
Cc1cc(Oc2ncccc2CN2CCN(C(c3ccccc3)c3ccccc3)CC2)ccc1-c1c(C)c(=O)[nH]c(=O)n1C	ADRA2C (Homo sapiens, UniProt P18825)	binding, radioligand binding		together with: [3H]rauwolscine	reference: Ki alpha2A over Ki alpha2C	selectivity ratio	2
O=c1nc(SCc2ccc(C(F)(F)F)cc2)nc(SCc2csc3ccc(Cl)cc23)[nH]1	TOP2A	DNA relaxation		7.8 µM		mean relaxed DNA	48.1%
N#CC(=Cc1cccnc1)C(=O)Nc1ccc(F)cc1	UCHL1	covalent, intact protein LC-MS		12.5 µM		labelling	23.5%
NC(=O)c1ccc[n+]([C@@H]2O[C@H](COP(=O)([O-])OP(=O)(O)OC[C@H]3O[C@@H](n4cnc5c(NCCNC(=O)CCCCCNC(=O)CCCCCNC(=O)CCCC[C@@H]6SC[C@@H]7NC(=O)N[C@@H]76)ncnc54)[C@H](O)[C@@H]3O)[C@@H](O)[C@H]2O)c1	TNKS (Homo sapiens, UniProt O95271)	enzyme activity, substrate, DELFIA		together with: histone H1		apparent Km	5 µM
CC(C)OCCn1c(=S)[nH]c(=O)c2[nH]ccc21	Myeloperoxidase (MPO, Homo sapiens, UniProt P05164)	inhibitor, cholesteryl ester hydroperoxide		0.0046 µM	reference: control	LDL lipid peroxidation	96% and 126% and 99% and 103%
Cc1cc(-c2ccnc3[nH]cc(F)c23)cc(F)c1[C@@]1(O)[C@H](C)CN(C(=O)CN)C[C@@H]1C	LATS2 (Homo sapiens, UniProt Q9NRM7)	ATP probe binding, KiNativ, refers to: Lys2 site	HEK293T cell lysate	0.1 µM		inhibition	38.4%
CC(C)NCC(O)COc1cccc2ccccc12 (stereo not drawn)	Voltage-dependent P/Q-type calcium channel subunit alpha-1A	ion current, antagonist	HEK293	10 µM		inhibition	44%
O=C(Nc1ccccc1Oc1nc2ccccc2n2cnnc12)c1cccs1	Catenin beta-1, residues 141-305 (CTNNB1, Homo sapiens, UniProt P35222)	ITC		25 °C		ΔS	16.4 cal/mol/K
COc1ccc(NC(=O)C(C#N)=Cc2cccc(O)c2)cc1OC	UCHL1	covalent, intact protein LC-MS		12.5 µM		labelling	30.7%
CNCCC(Oc1ccc(C(F)(F)F)cc1)c1ccccc1.Cl (stereo not drawn)	Voltage-dependent P/Q-type calcium channel subunit alpha-1A	ion current, antagonist, automated patch clamp				IC30	5330 nM
Cc1cc(Nc2cc(N3CCN(C)CC3)nc(Sc3ccc(NC(=O)C4CC4)cc3)n2)[nH]n1	Lyn (Mus musculus, UniProt P25911)	kinase activity, KinaseProfiler		0.03 µM, species mouse	reference: control	remaining activity	96%
C=CC(NS(=O)(=O)c1cccc(Cl)c1O)C1CCC1 (stereo not drawn)	malate dehydrogenase	enzyme activity, inhibitor		200 µM, pH 7.0, 1% DMSO, aggregation counter-screen		remaining activity	95%
C#CCCC1(CC[C@H](NC(=O)NCCCCCCNC(=O)NCCN)C(N)=O)N=N1	FKBP1A (Homo sapiens, UniProt P62942)	photoaffinity labeling, in-gel fluorescence, refers to: Alexa Fluor 647 click label		10 µM, UV irradiation 365 nm	reference: probe over FKBP12 signal, higher = more labeling	normalized labeling ratio	0.221
CCc1ccc(S(=O)(=O)n2nc(SCc3ccc(Cl)cc3)nc2N)cc1	Lysophospholipase-like protein 1 (Mus musculus, UniProt Q3UFF7)	enzyme activity, activator, gel-based ABPP	purified protein	concentration not given, together with: FP-rhodamine	reference: DMSO	probe labeling increase	1.9 fold
Cc1ncsc1-c1ccc(CNC(=O)[C@@H]2C[C@@H](O)CN2C(=O)[C@@H](NC(=O)C2(F)CC2)C(C)(C)C)c(OCCOc2ccc(CN3CCN(c4cc(-c5ccccc5O)nnc4N)CC3)cc2)c1	SMARCA2 bromodomain, human	ternary complex binding, TR-FRET competition		together with: VCB R69A mutant		cooperativity factor alpha	3.3
Cc1cc(C(=O)CCl)c(C)n1-c1ccc(Cl)cc1	UCHL1	covalent, intact protein LC-MS		12.5 µM		labelling	22.6%
CC(=O)C(=O)O	dxs (Escherichia coli, UniProt P77488)	substrate, IspC-coupled DXP formation				Km	53 to 80 µM
COc1c(Cl)cc(Cl)cc1C=C(C#N)C(N)=O	UCHL1	covalent, intact protein LC-MS		12.5 µM		labelling	40.6%
O=C(O)c1occc1S(=O)(=O)NCc1cc2cc(F)ccc2[nH]1	malate dehydrogenase	enzyme activity, inhibitor		200 µM, pH 7.0, 1% DMSO, aggregation counter-screen		remaining activity	111%

A few entries again:
SMILES	target	assay	test system	conditions	scale	quantity	result
CNCCC(Oc1ccc(C(F)(F)F)cc1)c1ccccc1.Cl (stereo not drawn)	Voltage-dependent P/Q-type calcium channel subunit alpha-1A	ion current, antagonist, automated patch clamp				IC30	5330 nM
Cc1cc(Nc2cc(N3CCN(C)CC3)nc(Sc3ccc(NC(=O)C4CC4)cc3)n2)[nH]n1	Lyn (Mus musculus, UniProt P25911)	kinase activity, KinaseProfiler		0.03 µM, species mouse	reference: control	remaining activity	96%
C=CC(NS(=O)(=O)c1cccc(Cl)c1O)C1CCC1 (stereo not drawn)	malate dehydrogenase	enzyme activity, inhibitor		200 µM, pH 7.0, 1% DMSO, aggregation counter-screen		remaining activity	95%
C#CCCC1(CC[C@H](NC(=O)NCCCCCCNC(=O)NCCN)C(N)=O)N=N1	FKBP1A (Homo sapiens, UniProt P62942)	photoaffinity labeling, in-gel fluorescence, refers to: Alexa Fluor 647 click label		10 µM, UV irradiation 365 nm	reference: probe over FKBP12 signal, higher = more labeling	normalized labeling ratio	0.221
